Measurements pooled from the literature.
A part holds a random share of what one study measured.

Series 1 — technique: aptamer microarray, sandwich; molecule type: DNA with 2'F-ANA; matrix: in vitro; tested at: 200 nM; added: Cy3 exosite-II aptamer, 400 nM; reading: higher = stronger binding; sequence: GGTTGGTGTGGTTGG
Target: Prothrombin, mature alpha-thrombin (F2, Homo sapiens, UniProt P00734)
Setting: whole 15-mer aptamer, many near background
Modification | mean fluorescence intensity
2'F-ANA at 1 3 4 5 6 8 9 10 11 14 | 55.6 a.u.
2'F-ANA at 1 2 3 4 5 11 12 13 | 71.7 a.u.
2'F-ANA at 1 2 3 4 6 13 | 243 a.u.
2'F-ANA at 1 6 8 10 11 12 13 14 15 | 49 a.u.
2'F-ANA at 2 3 8 12 14 15 | 526 a.u.
2'F-ANA at 1 4 9 11 13 14 15 | 48.8 a.u.
2'F-ANA at 3 4 7 11 15 | 638 a.u.
2'F-ANA at 1 2 3 4 7 9 10 11 13 14 | 50.3 a.u.
2'F-ANA at 1 2 7 8 9 10 12 | 81.8 a.u.
2'F-ANA at 3 4 5 6 12 15 | 212 a.u.
2'F-ANA at 1 2 5 7 8 9 | 68.5 a.u.
2'F-ANA at 2 3 5 8 9 10 12 14 15 | 50.4 a.u.
2'F-ANA at 1 2 8 9 10 13 | 50.1 a.u.
2'F-ANA at 7 9 11 12 13 14 | 210 a.u.
2'F-ANA at 3 10 11 13 | 483 a.u.
2'F-ANA at 1 2 4 6 9 10 11 | 48.2 a.u.
2'F-ANA at 2 4 5 11 | 56.3 a.u.
2'F-ANA at 2 4 6 9 11 13 14 | 89.9 a.u.

Series 2 — technique: RNA Bind-n-Seq; molecule type: RNA; matrix: in vitro; tested at: not given; relative to: input RNA pool; reading: higher = stronger binding
Target: RING finger protein unkempt homolog, zinc fingers 1-6, GST-SBP tag (UNK, Homo sapiens, UniProt Q9C0B0, residues 30-357)
UniProt Q9C0B0, sequence (30-357, looked up): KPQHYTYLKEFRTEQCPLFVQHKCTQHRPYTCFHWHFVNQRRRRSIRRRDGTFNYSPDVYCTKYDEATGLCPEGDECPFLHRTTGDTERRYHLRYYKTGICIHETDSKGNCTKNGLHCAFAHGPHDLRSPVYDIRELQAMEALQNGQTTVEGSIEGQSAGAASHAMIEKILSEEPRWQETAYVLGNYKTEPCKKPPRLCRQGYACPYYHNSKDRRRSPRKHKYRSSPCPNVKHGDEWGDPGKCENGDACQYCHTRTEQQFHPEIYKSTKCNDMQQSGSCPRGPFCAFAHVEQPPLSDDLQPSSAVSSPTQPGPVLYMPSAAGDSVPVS
Setting: RNA with constant flanks, human and mouse sites, ends assumed
Constant ends, left off below: GGGAGUUCUACAGUCCGACGAUC … CAACAGAGGAUUGAGCAUCA
Sequence | bound/input enrichment [ratio]
GAAAGUGAUGAAGAGGUCUCUUCUCCGGCCCCAAGUGUCCCCGGGCCAUCUUCACCCUUUGGUUUGGGCAGUGACACUGAUGAAGAACAAGGUCAGCAACCAGGAGUAGAGGAGUCCUCU | 0.246
GAUCGAACCUGGUCUUUGUGGAAGAGACAGGAUGCGACUUCCUCGGAGUUUGAUCCAUUUUUUAGUCUCUUUGCAUUCACCAACAAAAUUACUUCUGUGCAUAGUAGAAUCAUUUGGUCU | 1.87
ACACAAUAUGAGACCAACAGCAUGGACUUCAAAGUUGGGGCAGAUGGGACAGUCUUCGCCACCCGGGAGCUGCAGGUCCCCUCCGAGCAGGUGGCGUUCACGGUGACUGCAUGGGACAGC | 0.256
AAUGAGUCUUUGGCCUCAGAGCCUCUCAAAGUGUCCACUUCAAGGGGGGAUCAUCCUCAUUAGCACACAGAUUUUUAAAAAUCAAUUCUCUUGCCAUGCCUCCUAUGUGUUCACAUCUCU | 0.785
GCUUAUAAAAUCAAAUAUCCAGAGAACUUCUUUCUCUUAAGAGGAAACCAUGAGUGUGCUAGCAUCAAUCGCAUUUAUGGAUUCUAUGAUGAAUGCAAACGAAGAUUUAAUAUUAAAUUG | 0.284
AACCAUCCAGGCCAAAUCAGUGCUGGCUACGCUCCUGUUCUGGAUUGUCACACAGCCCACAUAGCAUGCAAGUUUGCUGAGCUUAAAGAAAAGAUCGAUCGUCGUUCUGGUAAGAAGCUG | 0.382
GACAUGGAAAGCUAUGAGCGACAGAGAGAGAAGCAUGGAGAAGAUUUUUUCCCAACAUCCAACAGUCUUCUCCAUGGGACGCACGUGCCUUCCUCAGAGGAAAUUGACAGAAUGGUUUUA | 0.186
GCAGAUGUGAUGAGAGCUUCUUGACCAGUAAACAAACUAGCCCAGGUCUGAGAGAGACGUGCUAAAGGAGAGUCUACGUCUGGGAACUCUAUUUAUUUUCCUGUUUCUCCGGUGUGAAGA | 0.295

Series 3 — technique: RNA Bind-n-Seq; molecule type: RNA; matrix: in vitro; tested at: 365 nM; relative to: no-protein control; reading: higher = stronger binding
Target: RNA binding protein fox-1 homolog 2, RRM domain, GST-SBP tag (RBFOX2, Homo sapiens, UniProt O43251-10, residues 100-194)
Setting: natural RNA segment, single round, ends assumed
Constant ends, left off below: GGGAGUUCUACAGUCCGACGAUC … UGGAAUUCUCGGGUGCCAA
Sequence | RBNS enrichment (R)
AAAAGGUAUGUCAGACUGGGAUUAAUGACAGCAUGAUUUUCAAUGACUGUAAAUUGCGAUAAGGAAAUGUACUGAUUGCCAAUACACCCCACCCUCAUUACAUCAUCAGG | 0.578
UGCUUUCUUGGUUUUUGAGAGUAAUUGUGUAAUUGUAGAGGGAGAAAUCCAAUUCUAACCUAAGAACUGGGAUUCUUCUGUCAUCUUGUAAACCGUAUAUUGAAAAAAAC | 0.373
CACUAAAUUUCUAAAAACUGUAUUCAUGGGCUGCUGAGAUGGCUCACAAGAAAAGCACUUGCUGCCAACUGGAUGACUUGAGUUUGUUCCCUGGGACCCAAAUGGAAGGG | 0.501
CUUAGAGCACAGGCUAAGGGCCACGGCUAACAGGGACGUCCCAUUUCUUUCCUGUUCCAUCCAACUUACCCAUCAUGCAGGGACAGCUGAGGUCCACUCGUGACCUAGGC | 0.394
AGAUAUAUUUAAAUAUUUUAGAGAAAUUUAAGUUACUCCUUAUGAAAUGUUUAAUUUCAGUUACUGUGAAUUCUUCUAAUCAGUUCGUUCUUUGAUUUUAAAAAGAAAAA | 0.886
UCACAUGAUGUCGAUGUCCCAAGGUGAAGGCAACGUCAGGAGUGCCGCAUGUAGGGAGAUGGAGGGAGUAGGCAAUGGGGCCAAGGAAAACUGAGUUCGAUGAAAGAAGA | 1.62
UUAUUCUGACUCGCAUUGUUUGCCAACAGAAAAUAUUUUAUACUUUUGUUAUUAAAGCAUCCAGGGCAAUUUAAUAUUUGUUCCUAGAUGUAACUCAUUUGAAUAGGUUU | 0.679
CCUCCCUGCCUGUUCCUGCCUCCUGCACCCUCCCCAGCACCUGCCACACUGACUAUGUCUUUAGGAUUUUAAGUUUAAGUUGUAGCUGCAGAUGGGGGCCUGUGGCUCCC | 1.11

Series 4 — technique: competition protein-binding microarray; molecule type: double-stranded DNA, one strand shown; matrix: in vitro; tested at: 2 µM; added: Pho4 competitor, 0.05 µM; reading: higher = stronger binding; constant ends, left off below: … GTCTTGATTCGCTTGACGCTGCTG
Target: Centromere-binding protein 1, full length, His-tagged (CBF1, Saccharomyces cerevisiae, UniProt P17106, residues 1-351)
UniProt P17106, sequence (whole entry, looked up): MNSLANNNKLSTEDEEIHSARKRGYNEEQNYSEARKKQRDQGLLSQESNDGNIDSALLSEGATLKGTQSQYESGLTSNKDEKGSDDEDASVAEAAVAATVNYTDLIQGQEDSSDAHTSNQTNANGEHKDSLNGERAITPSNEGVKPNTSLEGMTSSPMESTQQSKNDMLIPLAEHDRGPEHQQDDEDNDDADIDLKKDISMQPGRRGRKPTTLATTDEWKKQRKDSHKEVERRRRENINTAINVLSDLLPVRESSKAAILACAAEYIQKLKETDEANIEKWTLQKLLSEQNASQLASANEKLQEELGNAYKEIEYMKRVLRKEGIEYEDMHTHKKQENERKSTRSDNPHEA
Setting: whole 60-bp probe, lowest competitor level
Sequence | fluorescence intensity [a.u.]
CTTTCCCGATCTTGAGCGGTGGGTGTAGCACATTTG | 67.2
ACCCCGGAACACTGGCACGTATTTCATAAAAAGGAC | 89.4
TGCGCAACAACTTGAGTGGTGGGTGTATGTCTAGAA | 61.4
TCCACCAACGATGGGTCCGTGACGAATGGTTCAACG | 95.1
AAAGCGGTAATTTGCCTAGTGGGTGCAGATATCTAT | 89.7
TATATAAGATAATTGCACATGCAAACAGTCAATCTT | 142
GTTACAGATCTCCTACACGTTACATGTTCCAAAGTA | 95.4
ATGCTACTAGTAACACACATGTACAGCCTGTTGCAA | 93.9
GTTGAGCGAACGCGACTCGTGGGACGGCCACTTCGC | 61.2
AGTCTCTTCGGGAAGTACATGACAGGGTGGTATATA | 76.8
TGCGCAACAACTTATCACGTGTTTTTATGTCTAGAA | 6290
ATCTTTCGGAATTGTGAGGTGCAGGGATGCGGACTT | 73
TGCGCAACAACTTGATCTGTGGGTGTATGTCTAGAA | 72.3
CGTCCTAGTGATTGGGGGGTGGGTGCCATGAGGAAG | 126
CATATGGAGCATTTGCACGGGCCCTCAGGATAGAAG | 91.5
TTGACAATGTCGAGTCACGTGCAAAACAATTCAAGT | 17500
TGGTCTTTGAACAAGATCATGCCATTCTGGGCTGGC | 72.9
TGGTCAGACGCAGCGGGCGTGCTTTTGGACTGCTTG | 52.2
GCGCGACTTGCAAGAAAAGGCATAATTGTGGCGAGG | 77

Other studies, line by line
Molecule | target | test | test system | setting | how to read | quantity | value
PhoQ, residues 284 288 289 292 302 303 SNSSNI | PhoP, residues 12 14 15 18 19 MHTVL (Escherichia coli, UniProt P23836) | Sort-seq, measured: YFP reporter | E. coli | PhoQ-PhoP variant library, added: 10 µM Mg2+ | relative to: high Mg2+ state, higher = stronger signaling | fold induction | 6.6
